Experimental data from different studies.
Every numbered part comes from another study and shows a few of its results, in no order. Positions count from the first letter of the parent shown.
UniProt P28335, sequence (whole entry, looked up): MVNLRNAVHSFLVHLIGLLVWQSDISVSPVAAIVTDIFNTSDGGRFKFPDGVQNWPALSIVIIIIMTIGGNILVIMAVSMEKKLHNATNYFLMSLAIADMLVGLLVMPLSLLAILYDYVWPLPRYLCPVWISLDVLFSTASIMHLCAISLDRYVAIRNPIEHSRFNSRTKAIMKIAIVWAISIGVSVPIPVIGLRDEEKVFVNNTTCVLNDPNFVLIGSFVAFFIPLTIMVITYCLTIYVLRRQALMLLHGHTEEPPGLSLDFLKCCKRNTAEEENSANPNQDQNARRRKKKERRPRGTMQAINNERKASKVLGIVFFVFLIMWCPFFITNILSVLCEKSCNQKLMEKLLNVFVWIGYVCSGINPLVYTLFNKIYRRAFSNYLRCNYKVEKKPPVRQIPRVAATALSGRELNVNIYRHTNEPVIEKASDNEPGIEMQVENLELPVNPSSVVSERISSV

Study 1 — target: CCNB1, cyclin fold, Cln2 fusion (human); method: yeast growth competition, sequencing; sample: yeast; setting: strong parent motif; relative to: not given; direction: higher = stronger binding; measurement: normalised enrichment score; parent: viral docking peptide; YKVKRRLVFGADD
R5H: 0.827
K2N: 4.48
D12Q: 2.4
V3L: 1.47
K2Q: 4.78
Y1A: 2.7
V3N: 0.18
R6Y: 0.356

Study 2 — effect on: binding; method: phage display NGS; form: peptide; tested at: concentration not given; setting: panning round 2; relative to: input library; measurement: enrichment fold change
Target: UDP-N-acetylglucosamine--peptide N-acetylglucosaminyltransferase 110 kDa subunit (OGT, Homo sapiens, UniProt O15294)
UniProt O15294, sequence (whole entry, looked up): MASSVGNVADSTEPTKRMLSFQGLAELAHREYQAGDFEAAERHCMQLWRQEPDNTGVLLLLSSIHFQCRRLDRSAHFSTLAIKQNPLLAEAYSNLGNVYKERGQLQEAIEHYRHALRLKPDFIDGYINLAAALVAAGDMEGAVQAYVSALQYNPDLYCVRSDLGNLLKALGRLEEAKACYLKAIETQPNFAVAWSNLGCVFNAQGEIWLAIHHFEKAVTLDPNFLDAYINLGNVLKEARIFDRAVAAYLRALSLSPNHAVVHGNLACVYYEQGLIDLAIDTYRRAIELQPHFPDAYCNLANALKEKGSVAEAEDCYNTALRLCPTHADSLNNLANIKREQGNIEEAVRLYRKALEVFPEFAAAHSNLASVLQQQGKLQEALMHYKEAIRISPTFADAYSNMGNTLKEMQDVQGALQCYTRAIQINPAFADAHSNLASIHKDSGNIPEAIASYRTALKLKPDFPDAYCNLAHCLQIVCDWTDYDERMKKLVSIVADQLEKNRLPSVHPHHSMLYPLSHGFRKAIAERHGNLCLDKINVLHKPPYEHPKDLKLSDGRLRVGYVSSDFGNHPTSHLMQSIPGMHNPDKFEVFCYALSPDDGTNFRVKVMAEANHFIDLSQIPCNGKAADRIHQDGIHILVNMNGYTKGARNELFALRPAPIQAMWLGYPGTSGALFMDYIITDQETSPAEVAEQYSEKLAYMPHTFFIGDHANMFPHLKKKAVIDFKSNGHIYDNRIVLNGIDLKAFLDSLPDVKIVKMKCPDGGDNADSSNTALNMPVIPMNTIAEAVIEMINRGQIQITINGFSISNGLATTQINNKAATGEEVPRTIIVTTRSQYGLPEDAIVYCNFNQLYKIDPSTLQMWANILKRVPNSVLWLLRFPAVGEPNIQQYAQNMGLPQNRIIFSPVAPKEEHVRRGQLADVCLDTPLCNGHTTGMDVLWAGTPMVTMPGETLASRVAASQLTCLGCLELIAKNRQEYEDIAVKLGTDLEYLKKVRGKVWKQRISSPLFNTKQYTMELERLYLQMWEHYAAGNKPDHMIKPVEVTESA
QMHHHVIMGHHIGHT: 4.75
HFRMGHNRETTHVG: 6.27
DLTHEHQIHHHYNRD: 5.05
SPHMNNHHHAVMGEH: 7.96
RDHSWHGHHATLLGT: 5.62
QEHQYYRPKYLIEIY: 4.9
SIGHEQGYTYYHTHH: 3.5
TIYLPKYQIFTAIT: 31.7

Further values, each from its own experiment
Cl[C@H]1[C@H](Cl)[C@@H](Cl)[C@@H](Cl)[C@H](Cl)[C@H]1Cl  viability (Huh-7; 10 µM, 24 h): 103%
Cc1nc(Cc2cccc(C(F)(F)F)c2)sc1-c1ccc(C(N)=O)nc1  inhibition (HTR2C (Homo sapiens, UniProt P28335); binding, radioligand binding; 10 µM): 0.93%
COc1ccc(-c2c(Nc3ccccn3)[nH]c3c(C4=CCCCC4)c(-c4ccccc4)nn3c2=O)cc1  urinary tract infection incidence (patients with advanced malignancies; oral, dose not given, treatment-emergent adverse events): 10%
CNC(=O)c1ccc(-c2cnn3ccc(C(=O)N(C)c4ccc(Cl)c(C(=O)OC)c4)cc23)cc1  faecal oocyst shedding (Cryptosporidium parvum; qPCR; IFN-γ knockout mouse; 3 mg/kg, day 5 post treatment): 6.09 log oocysts/g faeces
COP(=O)(OC)OC=C(Cl)Cl  viability (Huh-7; 10 µM, 24 h): 94.4%

Some of these lines once more (study 2):
QEHQYYRPKYLIEIY: 4.9
QMHHHVIMGHHIGHT: 4.75
DLTHEHQIHHHYNRD: 5.05
